{"data": "Published values collected from several papers", "target": "Serine/threonine-protein kinase 32C (STK32C, Homo sapiens, UniProt Q86UX6)", "note": "Lines come from different studies, so protocols differ."}
{"SMILES": "CN1CC[C@@H](COc2cnc(C#N)cc2-c2ccn3nc(NC(=O)C4CC4)cc3c2)C1", "test": "enzyme activity, inhibitor", "conditions": "1 µM", "measurement": "inhibition", "value": "6%"}
{"SMILES": "CNC(=O)C[C@H](Cc1ccc(C#N)cc1)NC(=O)c1cc(-c2ccc(CN[C@H](C)c3ccc(C)cc3)o2)ccc1Cl", "test": "enzyme activity, inhibitor", "conditions": "1 µM", "measurement": "activity vs control", "value": "101%"}
{"SMILES": "NC(=O)[C@@H](O)C[C@H]1CCc2sc3ncnc(O[C@H]4CC[C@H](N5CCOCC5)CC4)c3c21", "test": "enzyme activity, inhibitor", "conditions": "10 µM", "measurement": "inhibition", "value": "-12%"}
{"SMILES": "C=CC(=O)N1CCc2ccc(-n3c(=O)ccc4cnc5ccc(-c6cnn(C)c6)cc5c43)cc21", "test": "KINOMEscan", "conditions": "1 µM", "scale": "baseline: DMSO control", "measurement": "remaining binding", "value": "93%"}
{"SMILES": "CCN1CCN(Cc2ccc(NC(=O)c3ccc(C)c(NC(=O)c4cncc(-c5cnn(C)c5)c4)c3)cc2C(F)(F)F)CC1", "test": "binding, competition with immobilised ligand", "conditions": "1 µM", "measurement": "remaining binding", "value": "90%"}
{"SMILES": "Cc1cnc2nc1Nc1cccc(c1)COC/C=C/COCc1cc(ccc1OCCN1CCOCC1)N2", "test": "binding, competition with immobilised ligand", "conditions": "0.1 µM", "measurement": "remaining binding", "value": "94%"}
{"SMILES": "CNS(=O)(=O)Nc1nccc(Cc2c(C)c3ccc(Oc4ncccc4F)cc3oc2=O)c1F", "test": "binding, competition with immobilised ligand", "conditions": "10 µM", "measurement": "remaining binding", "value": "95%"}
{"SMILES": "CCN1CCN(Cc2ccc(C(=O)Nc3ccc(C)c(NCc4cnc5[nH]ccc5c4OC)c3)cc2C(F)(F)F)CC1", "test": "binding, competition with immobilised ligand", "conditions": "1 µM", "measurement": "remaining binding", "value": "89%"}
{"SMILES": "COc1cc(Nc2nccc(-c3cnn4nc(OC)ccc34)n2)cc(C(F)(F)F)c1", "test": "binding, competition with immobilised ligand", "conditions": "1 µM", "measurement": "remaining binding", "value": "100%"}
{"SMILES": "CN1CCN(Cc2ccc(NC(=O)c3cccc(C#Cc4cnc(N)c5ncccc45)c3)cc2C(F)(F)F)CC1", "test": "cell-free assay, competition with immobilised ligand", "conditions": "0.5 µM", "measurement": "remaining binding", "value": "100%"}
{"SMILES": "Cc1ccc(-c2c(/C=C(\\C#N)C(=O)NC(C)C)n(CCCO)c3ncnc(N)c23)cc1", "test": "cell-free assay, competition with immobilised ligand", "conditions": "1 µM", "measurement": "remaining binding", "value": "100%"}
{"SMILES": "O=C(Cc1ccc(OCc2ccccc2)cc1)NC1(C(=O)O)CCN(C(=O)c2ccc(-c3cccc(Cl)c3)cc2)CC1", "test": "enzyme activity, inhibitor", "conditions": "10 µM", "measurement": "activity vs control", "value": "99%"}
{"SMILES": "COc1c(Cl)cccc1Nc1c(-c2ccncc2C#C[C@@]2(C)CCCN2C(=O)/C=C/CN(C)C)[nH]c2c1C(=O)NCC2", "test": "binding, competition with immobilised ligand", "conditions": "3 µM", "measurement": "remaining binding", "value": "67%"}
{"SMILES": "C=CC(=O)Nc1cc(-c2nn(C3CCN(CCNC(=O)[C@H](C)CCC45CC6CC(CC(C6)C4)C5)CC3)c3ncnc(N)c23)ccc1Oc1ccccc1", "test": "inhibitor, KiNativ profiling", "test system": "biochemical", "conditions": "2 µM", "measurement": "inhibition", "value": "10.4%"}
{"note": "A few entries again:"}
{"SMILES": "CCN1CCN(Cc2ccc(NC(=O)c3ccc(C)c(NC(=O)c4cncc(-c5cnn(C)c5)c4)c3)cc2C(F)(F)F)CC1", "test": "binding, competition with immobilised ligand", "conditions": "1 µM", "measurement": "remaining binding", "value": "90%"}
